Published values gathered from unrelated publications.
Protocols differ between the studies behind these lines. ± gives the spread as reported.
B1: UGT1A9 (Homo sapiens, UniProt O60656); chain GKLLVVPMDGSHWFTMRSVVEKLILRGHEVVVVMPEVSWQLGRSLNCTVKTYSTSYTLEDLDREFKAFAHAQWKAQVRSIYSLLMGSYNDIFDLFFSNCRSLFKDKKLVEYLKESSFDAVFLDPFDNCGLIVAKYFSLPSVVFARGILCHYLEEGAQCPAPLSYVPRILLGFSDAMTFKERVRNHIMHLEEHLLCHRFFKNALEIASEILQTPVTEYDLYSHTSIWLLRTDFVLDYPKPVMPNMIFIGGINCHQGKPLPMEFEAYINASGEHGIVVFSLGSMVSEIPEKKAMAIADALGKIPQTVLWRYTGTRPSNLANNTILVKWLPQNDLLGHPMTRAFITHAGSHGVYESICNGVPMVMMPLFGDQMDNAKRMETKGAGVTLNVLEMTSEDLENALKAVINDKSYKENIMRLSSLHKDRPVEPLDLAVFWVEFVMRHKGAPHLRPAAHDLTWYQYHSLDVIGFLLAVVLTVAFITFKCCAYGYRKCLGKKGRVKKAHKSKTH
Sequence of UniProt P25822 (whole entry, looked up): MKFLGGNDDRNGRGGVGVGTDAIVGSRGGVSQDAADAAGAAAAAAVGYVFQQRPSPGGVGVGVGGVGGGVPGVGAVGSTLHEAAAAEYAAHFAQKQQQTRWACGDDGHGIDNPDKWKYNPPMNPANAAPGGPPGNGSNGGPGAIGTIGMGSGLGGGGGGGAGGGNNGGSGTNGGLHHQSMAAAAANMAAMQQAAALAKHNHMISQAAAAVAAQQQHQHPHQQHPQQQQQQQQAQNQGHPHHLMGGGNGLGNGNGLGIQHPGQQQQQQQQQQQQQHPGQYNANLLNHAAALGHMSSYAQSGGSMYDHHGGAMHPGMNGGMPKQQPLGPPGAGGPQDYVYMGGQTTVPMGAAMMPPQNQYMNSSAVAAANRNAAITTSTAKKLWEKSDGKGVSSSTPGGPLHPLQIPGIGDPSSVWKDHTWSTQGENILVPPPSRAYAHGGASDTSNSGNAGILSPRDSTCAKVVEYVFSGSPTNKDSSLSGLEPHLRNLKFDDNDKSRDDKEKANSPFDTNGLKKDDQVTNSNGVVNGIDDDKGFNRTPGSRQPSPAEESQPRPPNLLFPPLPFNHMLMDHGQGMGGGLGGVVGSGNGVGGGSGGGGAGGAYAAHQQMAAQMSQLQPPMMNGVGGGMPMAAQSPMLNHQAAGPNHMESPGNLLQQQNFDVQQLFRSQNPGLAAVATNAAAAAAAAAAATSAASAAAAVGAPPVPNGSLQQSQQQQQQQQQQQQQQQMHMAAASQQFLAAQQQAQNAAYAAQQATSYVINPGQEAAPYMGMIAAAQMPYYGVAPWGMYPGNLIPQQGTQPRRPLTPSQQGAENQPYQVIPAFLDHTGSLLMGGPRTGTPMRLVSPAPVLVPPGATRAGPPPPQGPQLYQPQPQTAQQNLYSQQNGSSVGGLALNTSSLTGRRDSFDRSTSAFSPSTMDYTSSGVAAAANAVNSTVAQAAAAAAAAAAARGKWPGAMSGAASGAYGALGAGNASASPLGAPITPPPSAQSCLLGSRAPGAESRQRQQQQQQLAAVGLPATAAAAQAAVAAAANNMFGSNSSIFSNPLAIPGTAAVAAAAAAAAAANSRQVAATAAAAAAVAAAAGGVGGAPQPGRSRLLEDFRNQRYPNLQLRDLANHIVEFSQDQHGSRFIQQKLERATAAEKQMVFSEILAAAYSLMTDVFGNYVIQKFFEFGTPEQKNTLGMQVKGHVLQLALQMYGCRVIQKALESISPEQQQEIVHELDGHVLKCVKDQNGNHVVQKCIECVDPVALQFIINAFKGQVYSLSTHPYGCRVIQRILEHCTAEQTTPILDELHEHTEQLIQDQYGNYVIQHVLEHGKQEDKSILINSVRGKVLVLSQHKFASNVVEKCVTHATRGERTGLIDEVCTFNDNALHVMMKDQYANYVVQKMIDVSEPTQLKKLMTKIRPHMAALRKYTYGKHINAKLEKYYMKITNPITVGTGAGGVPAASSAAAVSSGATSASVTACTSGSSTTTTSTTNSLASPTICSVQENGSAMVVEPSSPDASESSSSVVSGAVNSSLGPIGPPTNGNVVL
Sequence of UniProt Q9H0Z9 (whole entry, looked up): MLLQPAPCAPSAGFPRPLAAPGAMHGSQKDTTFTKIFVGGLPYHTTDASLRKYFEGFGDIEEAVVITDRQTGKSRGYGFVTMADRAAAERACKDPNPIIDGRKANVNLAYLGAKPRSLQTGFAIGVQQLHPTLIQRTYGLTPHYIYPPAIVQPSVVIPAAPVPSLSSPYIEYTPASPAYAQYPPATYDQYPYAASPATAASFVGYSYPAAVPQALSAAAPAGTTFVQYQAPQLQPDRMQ
Sequence of UniProt P52926 (whole entry, looked up): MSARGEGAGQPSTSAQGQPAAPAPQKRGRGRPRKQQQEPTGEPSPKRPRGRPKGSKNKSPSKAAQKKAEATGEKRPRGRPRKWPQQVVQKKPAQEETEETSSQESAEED
Sequence of UniProt P0A8W2 (whole entry, looked up): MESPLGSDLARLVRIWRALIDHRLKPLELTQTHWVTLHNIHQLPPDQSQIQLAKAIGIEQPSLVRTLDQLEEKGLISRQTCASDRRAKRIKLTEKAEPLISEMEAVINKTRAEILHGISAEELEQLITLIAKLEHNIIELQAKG

AGCTGCCAGGCACCAGTGTCA / TGACACTGGTGCTTGGCAGCT (dsDNA; 21-bp, G-T mismatch, dT20 linker) — Kd (MutS fragment E435C/R449C (Escherichia coli); SPR): 28 ± 1 nM
CGGTNGATTC (ssDNA; THF abasic at position 5) — Kd (yedK 2-222 E105A (Escherichia coli, UniProt P76318); ITC): 70 nM
GGGAGACCUAGCCUCAUAUAAUCGUUGUCCAGAAUUGUAUAUAUUCGUAGCAUAAGUUUUCCAAACAUUAUUUUGUUGUCGAAAAUUGUACAUAAGCCAAUUAAGCCGCUAAUUCU (ssRNA) — K1/2 (pum 1093-1426 (Drosophila melanogaster, UniProt P25822); EMSA; with tRNA, heparin): 20 nM
CCCCGGATCCTGACGGTAACCAAATGCAGCAATACATTTGTTTTAGCAATACAATTGCTGCACACTATTCTAAAAGCCGCATAATATCTTAGCAAGCTAATTATAAGGAGATGAAATTGGAATCGCCACTAGGTTCTGATCTGGCACGGTTGGTGCGCATATGGCGTGCTCTGATAGACCATCGTCGACGGG (dsDNA) — binding (slyA full length assumed (Escherichia coli, UniProt P0A8W2); EMSA; double-stranded DNA, one strand shown): binds
GGTGCGCATAATGTATATTATGTTAAAT (dsDNA (Escherichia coli)) — K1/2 (xerD full length assumed (Escherichia coli, UniProt P0A8P8); EMSA; double-stranded DNA, one strand shown): 10 nM
GGGAGACCGUGCUCAGUCUGUUGUUGAUUACCUGAUCUCCAAAGGUAUCCCGGCAGACAAGAUCUCCGCACGUGGUAUGGGCGAAUCCAACCCGGUUACUGGCAACACCUGUGACAACGUGAAACAGCGUGCUGCACUGAUCGACUGCCUGGCUCCGGAUCGUCGCGUAGAGAUCGAAGUUAAAGGUAUCAAAGACGUUGUAACUCAGCCG (ssRNA) — binding (hfq full length assumed (Escherichia coli, UniProt P0A6X3); EMSA; with: Mg2+ 1 mM): no binding
GGGAGAGUAGAUGCUCAUUCCAUCUCUUAUGUUCGCCUUAGUGCCUCAUAAACUCCGGAAUGACGCAGAGCCGUUUACGGUGCUUAUCGUCCACUGACAGAUGUCGCUUAUGCCUCAUCAGACACCAUGGACACAACGUUGAGUGAAGCACCCACUUGUUGUCAUACAGACCUGUUUUAACGCCUGCUCCGUAAUAAGAGCAGGCGUU (ssRNA (Escherichia coli); three stem loops) — binding (hfq (Escherichia coli, UniProt P0A6X3); EMSA): binds weakly
GGGAGCACUCUGUCAUCCAGGCUAGAGUGCAGUGGCGUGAUCUCGGCUGACUGCAACCUCUGCCUCCCGGGUUCAAGUGAUUCUCCUGCCUCAAUCUCUCUCCCCAGAAGCUGGGAUUACAGGUGUGUGCCACCACACCCGGCUAAUUUUUUUUUUUUUUUUUGAGAUGGAGUCUAGCUCUGUCAUCCAGGCUGGAGUGCAGUGGUGUGAUCUCGG (ssRNA) — binding (RBM38 full length assumed (Homo sapiens, UniProt Q9H0Z9); EMSA): binds
ATATTCGCGATTATT (dsDNA) — Ka (HMGA2 full length assumed (Homo sapiens, UniProt P52926); EMSA; double-stranded DNA, one strand shown): 5.2e+07 M⁻¹
GAGUUGAGUUGAGUUGAGUUGAGUUGAGUUGAGUUGAGUUGAGUUGAGUUGAGUU (ssRNA; single strand) — Kd (mtrB full length assumed D39A (Bacillus subtilis, UniProt P19466); filter binding; with: L-tryptophan 1 mM): 0.25 ± 0.05 nM
B1 (UGT1A9) — Vmax/Km (O=c1c(O)c(-c2ccc(O)c(O)c2)oc2ccccc12; steady-state kinetics; pH 7.4, 37 °C): 22000 µL/min/mg
CGGACACTGGTATAAACATGCACCGGCTTTCAATTCTATAAGAGATTATCTCAGTCTTATTGTCGAGGAGTAGTGGTAGGAGTGATACCTTTCAATTCTATAAGAGATTATCGGAAGAGACAAGACTCTACAGTACAATATGCCCCAGATG (dsDNA (Sulfolobus solfataricus)) — binding (CRISPR-associated protein full length assumed (Saccharolobus solfataricus, UniProt Q97ZW9); competition; double-stranded DNA, one strand shown; stronger binding): binds
CATTTTCCTCACCCCTATCTAAATGTTTATAACTTTAATTCTCCAACCTAGAGTTGGTTCAAATCTAGGTTGTCAACCTTAGGTTGAATGCACAATATATAAACTTTGCGCCACAGATATGGGTAGGTGATGAATATG (dsDNA) — binding (HTH arsR-type domain-containing protein (Pyrococcus furiosus, UniProt Q8U4J2); EMSA; double-stranded DNA, one strand shown): binds
CTGTGCTCA (ssDNA) — binding (SF3 helicase domain-containing protein 40-370 (Saccharolobus islandicus, UniProt Q54324); solid-state NMR; single-stranded DNA; with: Mg2+ 10 mM): binds
TCTTCTGTGCACTCTTC (dsDNA) — K1/2 (SF3 helicase domain-containing protein 752-844 (Saccharolobus islandicus, UniProt Q54324); fluorescence anisotropy; double-stranded DNA, one strand shown): 2100 nM

Some of these lines once more:
GGGAGAGUAGAUGCUCAUUCCAUCUCUUAUGUUCGCCUUAGUGCCUCAUAAACUCCGGAAUGACGCAGAGCCGUUUACGGUGCUUAUCGUCCACUGACAGAUGUCGCUUAUGCCUCAUCAGACACCAUGGACACAACGUUGAGUGAAGCACCCACUUGUUGUCAUACAGACCUGUUUUAACGCCUGCUCCGUAAUAAGAGCAGGCGUU (ssRNA (Escherichia coli); three stem loops) — binding (hfq (Escherichia coli, UniProt P0A6X3); EMSA): binds weakly
